# Published values from different studies.
# Each numbered part is a random draw from the data of one study; scales do not carry over between parts. Substitutions count along the parent as printed.

# Set 1 — method: RNA Bind-n-Seq; molecule type: RNA; matrix: in vitro; concentration: 365 nM; baseline: no-protein control; direction: higher = stronger binding
# Target: RNA binding protein fox-1 homolog 2, RRM domain, GST-SBP tag (RBFOX2, Homo sapiens, UniProt O43251-10, residues 100-194)
# Setting: natural RNA segment, single round, ends assumed
# Shared flanks, not repeated: GGGAGUUCUACAGUCCGACGAUC … UGGAAUUCUCGGGUGCCAA
# Residues (chain): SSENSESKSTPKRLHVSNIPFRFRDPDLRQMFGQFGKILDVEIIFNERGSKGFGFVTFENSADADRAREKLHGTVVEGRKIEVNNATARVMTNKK
Sequence,RBNS enrichment (R)
CCUGGUAUUGGGCAUGGAAAUUUGAAUUGCUGAUUGGUAGAUGGUGUGUCUGGACUUAACUCACGUAGUAAAUACUGCUGAUCAAUACCUAAUCAUUCCACAUUUAUUGA,0.884
UUUAGAUAUACACACAUGCGUAACAGCUGACAGUUUUUCACAAGUACACCCACCUGUAAAUACUGUAUCCUCAGUUUAGAAAAUUAGUGCAAUGUAUGAAAAUCAAGUGU,0.287
AAAUAUUUAAAGUCUCCAAAAUAAAACACCCCAACGUUGACCUUACCCGGCUGAUGGUUAGCCCCUUGCUGCCUGCUCCAUGUGUCUUAUGAGAGCCCGUAGUUACAGUG,0.473
AUUGCCUCUGACUUCCUCCUCCCCUGGGUUCUGACUUCUUCCUCCCCUUGCUUCCAGGGAAGAUGAAGAGAGAGAGAUUUGGAAGGGGCUCUGGCUCCCUAACACCUGAA,0.566
CAAUGUAGCAACUUCGCUGGCGCCUGCCCCGCACUCCCCGUCCCGUCCACUUCUGAAACUCCUGUUCCUAAUGACAAAGUGGCUAUGUGCAAUGGAUAUAAAUGUACUGU,0.591
GUAUGGCUAAGUGCGAACACAUUGACAGGUCCAGCAAGAAGGAGCCUCAAACUGCCAUUCACAGUGGUACUGUGAUCCAGACCCCUGAGUGCCACAGGAAGGGUAGGCCC,0.422
UUUAUAAAGCUUGAGUUAUGUAAGAUUUAAAUAAAAGUUUGCUACCAAGAUGAUUGCCUUAUUGAAUAGGUCACUACUAAGGCCCUUAAGUGUUGAUACCUGCCAUGUGU,0.609
UUUAAUUAUCCUAAUGUUAUUUCACUUGCCCUUAUGCUUUAUUUUAGAGUCCCAGGGACAACUGGAUGAAACAUUACGUCUGUAGUCAUCUUAUUUGAGAUGGGGGUGGG,0.381
CUGACGUUUCUAUUAAUGAGUUAUCAGAAGUUGCAACAUCUCUCCAGCACUAAUGUGUUUUGUCCACUUCAAACGCUGUUCUAAUUGCCAACCGGCUGCUCUAGGCUCCU,0.37
UAUGGAAGUUGUAGCCCUCUGCAGCUCAGCCCUGUACAUAUACCUGUCCCUCUCUGGCUUGGUCCCCUUCCUCCCUACUUUCUGUAAAUAUCUGUAUCUAAACCAGAAUA,0.442
CAGCAAUCUGGGAAGUGACAGGGUUAAUAACUCCUUCCCAGAAGCUGUAUCAUGAGAUUUUGAGGGGACCGAGCCCUGUUACAUGGAUGUGAACAGUGAGGAUCAGAGGU,5.03
GAGCUAAUGAAGGGCCCUGCCUAGAUCCAGACUUUCUGACAUCAAAUUAGGGAAGUGGAGGAAAUUAUUUGGAAUGUGAUCUAAGUUUUUGUUUUUUUUUAAUGUGUCAA,1.49

# Set 2 — method: Sort-seq; refers to: YFP reporter; matrix: E. coli; setting: PhoQ-PhoP variant library; with: 10 µM Mg2+; baseline: high Mg2+ state; direction: higher = stronger signaling
# Substance: PhoQ, residues 284 288 289 292 302 303 SNSSNI
target,fold induction
"PhoP, residues 12 14 15 18 19 AYFRS (Escherichia coli, UniProt P23836)",1.45
"PhoP, residues 12 14 15 18 19 SFCSL (Escherichia coli, UniProt P23836)",19.7
"PhoP, residues 12 14 15 18 19 HHYTI (Escherichia coli, UniProt P23836)",8.64

# Set 3 — method: protein-binding microarray; molecule type: double-stranded DNA, one strand shown; matrix: in vitro; concentration: 2540 nM top; setting: 60-bp whole probe; with: salmon DNA 0.4 mg/ml; baseline: random background probes; direction: higher = stronger binding; shared flanks, not repeated: GCCTAGCAC … GTCTTGATTCGCTTGACGCTGCTG
# Target: Interferon regulatory factor 3, full length, phosphomimetic (IRF3, Homo sapiens, UniProt Q14653, residues 1-427, S386D/S396D/S398D/S402D/T404D/S405D)
# Residues (chain): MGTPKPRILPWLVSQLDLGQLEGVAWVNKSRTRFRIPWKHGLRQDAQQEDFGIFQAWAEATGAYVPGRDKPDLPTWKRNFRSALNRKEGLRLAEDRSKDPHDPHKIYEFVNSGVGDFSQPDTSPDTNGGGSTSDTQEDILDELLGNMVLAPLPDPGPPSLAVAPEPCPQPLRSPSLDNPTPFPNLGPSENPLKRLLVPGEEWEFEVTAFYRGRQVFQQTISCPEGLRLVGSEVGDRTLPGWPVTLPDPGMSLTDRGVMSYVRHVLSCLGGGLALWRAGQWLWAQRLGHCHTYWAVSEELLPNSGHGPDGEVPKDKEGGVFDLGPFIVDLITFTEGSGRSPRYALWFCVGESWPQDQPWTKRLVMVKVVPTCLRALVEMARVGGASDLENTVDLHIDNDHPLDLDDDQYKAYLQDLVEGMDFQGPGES
Sequence,fitted relative affinity
GTAGATTTCAGTTCCGATTAGTGCTAG,3.94 z-score
GTAGGTATCGGGTATCGGTTAGTGCTA,2.05 z-score
TCATCTTGCTTTTTAGAACTGTGCTAG,1.74 z-score
GACGGGTTCCTTTTCCTGACGTGCTAG,5.29 z-score
TTAGATATGGGGTATCGATTAGTGCTA,-0.203 z-score
TTCGGTCTCCTACTGCTTTAGTGCTAG,1.84 z-score
GACGGTATCGGACAGGGGACGTGCTAG,0.746 z-score
TTAGGACCGGGTATCGGTTAGTGCTAG,0.709 z-score
CCAGTTCTGGGAAATATTTACGTGCTA,0.564 z-score
GACGGTTTCGACTTTCCGGACGTGCTA,4.57 z-score
TTTGAACTGGGGTTTCGATTAGTGCTA,1.38 z-score
TCAGTTTTGAGCTCTGTCTGGGTGCTA,1.06 z-score
GGTCCTCTGGGCTGTTTGGCCGTGCTA,-0.356 z-score
ATTTGTCCCTATTTAAGAGAGTGCTAG,2.48 z-score
TTAGGACTCGGTCTCGGTTAGTGCTAG,0.186 z-score
GGCAATTTGAGTCACTGTGTGTGCTAG,-0.847 z-score

# Set 4 — method: DHFR PCA, deep sequencing; matrix: yeast; with: (+)-ABA 0.032 µM; baseline: wild-type fitted maximum; direction: higher = stronger binding
# Target: ABI1, truncated, D143A, DHFR fusion (Arabidopsis thaliana)
# Setting: methotrexate growth selection, single substitutions
# Parent: PYL1, truncated, DHFR fusion (Arabidopsis thaliana); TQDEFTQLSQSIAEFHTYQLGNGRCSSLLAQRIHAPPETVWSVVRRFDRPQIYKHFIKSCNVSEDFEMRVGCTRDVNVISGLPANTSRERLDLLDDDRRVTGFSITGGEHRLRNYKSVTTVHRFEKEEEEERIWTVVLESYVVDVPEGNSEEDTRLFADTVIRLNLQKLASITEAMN; partner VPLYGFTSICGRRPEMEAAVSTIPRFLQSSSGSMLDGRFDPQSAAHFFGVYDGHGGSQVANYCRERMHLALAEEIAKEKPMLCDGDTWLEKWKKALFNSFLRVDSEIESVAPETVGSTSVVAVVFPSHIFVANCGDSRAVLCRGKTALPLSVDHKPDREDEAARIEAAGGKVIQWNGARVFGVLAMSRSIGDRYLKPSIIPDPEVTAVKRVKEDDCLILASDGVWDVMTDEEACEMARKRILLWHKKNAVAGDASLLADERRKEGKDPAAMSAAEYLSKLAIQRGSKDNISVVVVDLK
Change,relative binding score
A158Q,18.6%
S9I,14.2%
D97S,21.5%
E38P,5.06%
L138G,-1.21%
L82D,2.13%
L93R,5.6%
Q19H,19.5%
E14K,6.61%
V121C,5.18%
I172D,-19.2%
V118W,-3.91%
S11G,6.95%
V62S,0.055%
Q51K,10.3%
E151Q,22.1%

# Set 5 — target: CCNA1, cyclin fold, Cln2 fusion (human); method: yeast growth competition, sequencing; matrix: yeast; setting: weak parent motif; baseline: not given; direction: higher = stronger binding
# Parent: SAMHD1 docking peptide (human); ASKSRVQLFKDDP
Change,normalised enrichment score
ASKSRVQLFKQDP [D11Q],-0.073
ASKSPVQLFKDDP [R5P],-0.479
ASKSMVQLFKDDP [R5M],-0.258
ASKSRMQLFKDDP [V6M],0.544
ASKNRVQLFKDDP [S4N],0.0195
ASKSRVQEFKDDP [L8E],0.388
AMKSRVQLFKDDP [S2M],0.205
ASKSIVQLFKDDP [R5I],0.281
ASKSRVQLFKDGP [D12G],0.0657
ASKSRIQLFKDDP [V6I],-0.264
ASKARVQLFKDDP [S4A],0.852
ASKSRVQIFKDDP [L8I],0.13
ASKSRVQLFFDDP [K10F],-0.239
ASKSRVQLDKDDP [F9D],0.195
ASKVRVQLFKDDP [S4V],1.11
ASKSRVQLFGDDP [K10G],-0.0602
ASKSRVQLFKYDP [D11Y],0.496
ASNSRVQLFKDDP [K3N],-0.0663
ASKSRDQLFKDDP [V6D],-0.253
ASKSRVQLFKSDP [D11S],0.388

# Excerpt of the above (set 4):
Change,relative binding score
E38P,5.06%
L138G,-1.21%
L82D,2.13%
L93R,5.6%
Q19H,19.5%
E14K,6.61%
V121C,5.18%
I172D,-19.2%
V118W,-3.91%
S11G,6.95%
V62S,0.055%
